Measured values pooled from the literature.
± gives the spread as reported.
Cell line: HepG2

`COC1C=COC2(C)Oc3c(C)c(O)c4c(c3C2=O)C2=NC3(CCN(CC(C)C)CC3)NC2=C(NC(=O)C(C)=CC=CC(C)C(O)C(C)C(O)C(C)C(OC(=O)c2cccnc2)C1C)C4=O` (centres unmarked) gave a selectivity index of 2080 (48 h; relative to: CC50 over MIC).
`COc1ccc(C(=O)/C=C(\O)C(F)(F)C(F)(F)F)cn1` has an EC50 of roughly 10 µM (cell viability; 24 h, 10% FBS).
`CC(C)[C@@H]1CC[C@@H](C)C[C@H]1O` has a viability of 96% (cell growth or viability, MTT; 25 µM, 24 h).
Under cytotoxicity, `O=C(Nc1nc2ccccc2s1)C1CCN(S(=O)(=O)c2ccc(F)c(Cl)c2)CC1` is recorded as “not toxic” (MTT; up to 30 µM, 24 h).
`CC1=CC(OC(=O)c2ccccc2)C2(COC(=O)c3ccccc3)CCC(=C(C)C)C2C(O)CC2(C)OC2CC1` (centres unmarked) has a viability of 76.6% (cell growth or viability, CCK-8; 40 µM, 24 h).
`COC1C=COC2(C)Oc3c(C)c(O)c4c(c3C2=O)C2=NC3(CCN(CC(C)C)CC3)NC2=C(NC(=O)C(C)=CC=CC(C)C(O)C(C)C(O)C(C)C(OC(=O)Nc2cnccn2)C1C)C4=O` (centres unmarked) has a selectivity index of 2220 (48 h; relative to: CC50 over MIC).
Under cytotoxicity, `O=C(CN1C(C(=O)c2ccccc2)=C(O)c2ccccc2S1(=O)=O)Nc1ccccc1Br` is recorded as “not toxic” (MTT; concentration not given; relative to: DMSO).
`CC(=O)O[C@@H]1CC[C@@]2(C)C(CC[C@]3(C)C2C(=O)C=C2C4[C@@H](C)[C@H](C)CC[C@]4(C)CC[C@]23C)[C@@]1(C)C(=O)OCc1cn(CC(=O)OC2CC(C)CCC2C(C)C)nn1` (some centres unmarked) gave a viability of 85% (cell growth or viability, MTT; 25 µM, 24 h).
The IC50 of `CCC1=C(C)C(=CNC2CCCCCCC2)N=C1c1ccc[nH]1` is reported as 18.9 µM (cell growth or viability, resazurin).
For `COc1cc(COC(=O)C2C(C=O)=Cc3cc4c(cc3C2c2cc(OC)c(OC)c(OC)c2)OCO4)cc(OC)c1OC` (centres unmarked), the CC50 was 89.9 µM (cell growth or viability, resazurin; 48 h).
`CC(=O)O[C@@H]1CC[C@@]2(C)C(CC[C@]3(C)C2C(=O)C=C2C4[C@@H](C)[C@H](C)CC[C@]4(C)CC[C@]23C)[C@@]1(C)C(=O)N/N=C1/C(=O)Nc2ccccc21` (some centres unmarked) has a viability of 93% (cell growth or viability, MTT; 25 µM, 24 h).
For `CNC(=O)c1c(F)cccc1Nc1nc(Nc2cc3c(cc2OC)CCN3C(=O)CN(C)C)nc2[nH]ccc12`, the pTC50 was 5.1 (cytotoxicity).
For `COC1=CC(c2ccc[nH]2)=NC1=CNC1CCCCCCC1`, the IC50 was 9.7 µM (cell growth or viability, resazurin).
For `C[C@@]1(CO)CC[C@]2(C(=O)O)CC[C@]3(C)C(=CCC4[C@@]5(C)C[C@@H](O)[C@H](O)[C@@](C)(CO)C5CC[C@]43C)C2C1` (some centres unmarked), the IC50 was greater than 100 µM (cell growth or viability, MTT; 72 h).
`COc1ccccc1NC(=O)OC1C(C)C(OC)C=COC2(C)Oc3c(C)c(O)c4c(c3C2=O)C2=NC3(CCN(CC(C)C)CC3)NC2=C(NC(=O)C(C)=CC=CC(C)C(O)C(C)C(O)C1C)C4=O` (centres unmarked) gave a selectivity index of 4130 (48 h; relative to: CC50 over MIC).
For `CCC1=CC(=CNC23CC4CC(CC(C4)C2)C3)N=C1c1ccc[nH]1`, the IC50 was 15.2 µM (cell growth or viability, resazurin).
The viability of `COc1cc(/C=N\NC(=O)[C@]2(C)C3CC[C@]4(C)C(C(=O)C=C5C6[C@@H](C)[C@H](C)CC[C@]6(C)CC[C@]54C)[C@@]3(C)CC[C@H]2OC(C)=O)cc(OC)c1OC` (some centres unmarked) is reported as 87% (cell growth or viability, MTT; 25 µM, 24 h).
For `CCCCCCCCCCCCCC(=O)NCC(=O)N(CC(=O)N(CCCCN)CC(=O)N(CCN)CC(=O)N(CC(N)=O)C1CCCCC1)C1CCCCC1`, the TD50 was greater than 200 µg/mL (cytotoxicity, MTT; 72 h).
For `COc1cccc2c(-c3ccc(O)c4c3CC(C)(C)N=C4)ccc(OC(C)C)c12`, the EC50 was greater than 50 µM (cytotoxicity).
With `CC(=O)O[C@@H]1CC[C@@]2(C)C(CC[C@]3(C)C2C(=O)C=C2C4[C@@H](C)[C@H](C)CC[C@]4(C)CC[C@]23C)[C@@]1(C)C(=O)OCc1cn(CC(=O)Oc2cc(C)ccc2C(C)C)nn1` (some centres unmarked) the viability was 93% (cell growth or viability, MTT; 25 µM, 24 h).
The IC50 of `O=[N+]([O-])c1ccc2c(c1)S(=O)(=O)C=C2` is reported as 10.8 µM (cell growth or viability, WST-1; 24 h).
`CCC1=C(C)C(c2ccc[nH]2)=NC1=CNC1CCCCCCC1` gave an IC50 of 23.9 µM (cell growth or viability, resazurin).
The viability of `COc1ccc(/C=N\NC(=O)[C@]2(C)C3CC[C@]4(C)C(C(=O)C=C5C6[C@@H](C)[C@H](C)CC[C@]6(C)CC[C@]54C)[C@@]3(C)CC[C@H]2OC(C)=O)cc1O` (some centres unmarked) is reported as 90% (cell growth or viability, MTT; 25 µM, 24 h).
`COC1=CC(c2ccc[nH]2)=NC1=CNC12CC3CC(CC(C3)C1)C2` gave an IC50 of 3.3 µM (cell growth or viability, resazurin).
The viability of `CC(C)=CCc1c(O)cc(CO)cc1O` is reported as 99.8% (cell growth or viability, CCK-8; 20 µM, 24 h).
For `O=C(CCl)Sc1nnc(-c2n[nH]c(=O)c3ccccc23)o1`, the mRNA level was 1.63 ± 0.18 fold (qRT-PCR, item: p53; IC50, 8 h; relative to: untreated).
`CCC1=C(C)C(=CNC23CC4CC(CC(C4)C2)C3)N=C1c1ccc[nH]1` has an IC50 of 3.3 µM (cell growth or viability, resazurin).
With `C[C@@H]1O[C@@H](O[C@H]2[C@H](O[C@H]3CC[C@@]4(C)C(CC[C@]5(C)C4CC=C4C6CC(C)(C)CC[C@]6(C(=O)O[C@@H]6O[C@H](CO)[C@@H](O)[C@H](O)[C@H]6O)CC[C@]45C)[C@]3(C)CO)OC[C@H](O)[C@@H]2O)[C@H](O)[C@H](O[C@@H]2OC[C@@H](O)[C@H](O)[C@H]2O)[C@H]1O` (some centres unmarked) the viability was 87.4% (cell growth or viability, CCK-8; 30 µM, 24 h).
The IC50 of `CCc1c(C)[nH]c(C=NC23CC4CC(CC(C4)C2)C3)c1C` is reported as 29.9 µM (cell growth or viability, resazurin).
`CC(C)=C1CC[C@]2(COC(=O)c3ccccc3)[C@@H](OC(=O)c3ccccc3)/C=C(\C)CC[C@@H]3O[C@@]3(C)C[C@@H](OC(=O)c3cccnc3)[C@@H]12` gave a viability of 97.2% (cell growth or viability, CCK-8; 10 µM, 24 h).
`CCCCCCCCCCCCCNCC(=O)N(CC(=O)N(CCCCN)CC(=O)N(CCN)CC(=O)N(CC(N)=O)c1cccc2ccccc12)c1cccc2ccccc12` gave a TD50 of 118 ± 19 µg/mL (cytotoxicity, MTT; 72 h).
`COc1cc(O)c(-c2cc(-c3cc(-c4c(O)cc5c(c4OC)[C@H](C)N[C@H](C)C5)c4cc(C)cc(OC)c4c3O)c(O)c3c(OC)cc(C)cc23)c2c1[C@H](C)N[C@H](C)C2` gave an EC50 of 13.1 ± 3.5 µM (cytotoxicity).
`COC(=O)c1[nH]c(C(=O)OC)c2c1-c1c[nH]c3ccc(Cl)c(c13)[C@]21C=Nc2ccc(Cl)cc21` has a CC50 of greater than 10 µM (cell growth or viability, ATP luminescence; 72 h).
`COc1cc(O)c(-c2cc(-c3cc(-c4c(O)cc(OC)c5c4C[C@@H](C)N[C@@H]5C)c4cc(C)cc(OC)c4c3O)c(O)c3c(OC)cc(C)cc23)c2c1[C@@H](C)N[C@H](C)C2` has an EC50 of 30.5 ± 9 µM (cytotoxicity).
With `CC(=O)O[C@@H]1CC[C@@]2(C)C(CC[C@]3(C)C2C(=O)C=C2C4[C@@H](C)[C@H](C)CC[C@]4(C)CC[C@]23C)[C@@]1(C)C(=O)OCC(=O)O[C@@H]1C[C@H](C)CC[C@H]1C(C)C` (some centres unmarked) the viability was 90% (cell growth or viability, MTT; 25 µM, 24 h).
With `CC1=N[C@H](C)Cc2c(-c3ccc(C)cc3)ccc(O)c21` the EC50 was greater than 50 µM (cytotoxicity).
With `CCCCCCCCCCCCCCCC(=O)NCC(=O)N(CC(=O)N(CCCCN)CC(=O)N(CCN)CC(=O)N(CC(N)=O)C1CCCCC1)C1CCCCC1` the TD50 was 85 ± 16 µg/mL (cytotoxicity, MTT; 72 h).
The IC50 of `C1=CC(c2ccc[nH]2)=NC1=CNC12CC3CC(CC(C3)C1)C2` is reported as 70 µM (cell growth or viability, resazurin).
With `C=CCc1ccc(OC(=O)COC(=O)[C@]2(C)C3CC[C@]4(C)C(C(=O)C=C5C6[C@@H](C)[C@H](C)CC[C@]6(C)CC[C@]54C)[C@@]3(C)CC[C@H]2OC(C)=O)c(OC)c1` (some centres unmarked) the viability was 104% (cell growth or viability, MTT; 25 µM, 24 h).
The EC50 of `COc1cccc2c(-c3ccc(O)c4c3CCN=C4)ccc(OC(C)C)c12` is reported as greater than 50 µM (cytotoxicity).
For `CC(C)=CCc1c(O)cc2c(c1O)C(=O)OC2`, the viability was 93.3% (cell growth or viability, CCK-8; 20 µM, 24 h).

For quick reference, copied from above:
`CCCCCCCCCCCCCNCC(=O)N(CC(=O)N(CCCCN)CC(=O)N(CCN)CC(=O)N(CC(N)=O)c1cccc2ccccc12)c1cccc2ccccc12` gave a TD50 of 118 ± 19 µg/mL (cytotoxicity, MTT; 72 h).
The IC50 of `CCC1=C(C)C(=CNC2CCCCCCC2)N=C1c1ccc[nH]1` is reported as 18.9 µM (cell growth or viability, resazurin).
With `CC1=N[C@H](C)Cc2c(-c3ccc(C)cc3)ccc(O)c21` the EC50 was greater than 50 µM (cytotoxicity).
`COc1cc(O)c(-c2cc(-c3cc(-c4c(O)cc5c(c4OC)[C@H](C)N[C@H](C)C5)c4cc(C)cc(OC)c4c3O)c(O)c3c(OC)cc(C)cc23)c2c1[C@H](C)N[C@H](C)C2` gave an EC50 of 13.1 ± 3.5 µM (cytotoxicity).
`CC(C)=C1CC[C@]2(COC(=O)c3ccccc3)[C@@H](OC(=O)c3ccccc3)/C=C(\C)CC[C@@H]3O[C@@]3(C)C[C@@H](OC(=O)c3cccnc3)[C@@H]12` gave a viability of 97.2% (cell growth or viability, CCK-8; 10 µM, 24 h).
